Measurements from different studies.
± gives the spread as reported.
ALB: Albumin (ALB, Homo sapiens, UniProt P02768)
uncharacterized protein: uncharacterized protein (Spodoptera exigua, UniProt F1CEY0)
T1: RNA aptamer; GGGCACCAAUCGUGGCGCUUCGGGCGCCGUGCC

| SMILES | target | assay | system | conditions | how to read | endpoint | value |
| --- | --- | --- | --- | --- | --- | --- | --- |
| O=C(O)C1CCCNC1 (stereo not drawn) | SLC6A6 (Homo sapiens, UniProt P31641, G62A) | binding, microscale thermophoresis |  | 977 nM, room temperature, added: 50 nM labelled protein | higher = more binding | normalised MST signal | 0.0889 |
| CCCCCCCCCCCCCCCCCCc1ccc(O)cc1 | ALB | van't Hoff analysis |  | concentration not given, 310.15 K |  | binding entropy change | -35.1 J/mol/K |
| C#Cc1c(F)ccc2cc(O)cc(-c3ncc4c(N5CC6CCC(C5)N6)nc(OC[C@@]56CCCN5C[C@H](F)C6)nc4c3F)c12 | GTPase KRas, GDP-bound (KRAS, Homo sapiens, UniProt P01116, G12V) | SPR |  |  |  | dissociation rate constant koff | 0.00136 ± 0.0016 s⁻¹ |
| c1ccc(C(NCc2cccnc2)(c2ccccc2)c2ccccc2)cc1 | KCNQ1 (Homo sapiens, UniProt P51787) | whole-cell patch clamp |  | 300 pM |  | activation time constant | 17 ± 3 ms |
| CN(CCO)c1ccc(/C=C(\C#N)c2ccc(C#N)cc2)cc1 | T1, RNA aptamer | fluorescence titration |  |  |  | binding | no binding |
| CCCCCCCCOC(C)=O | uncharacterized protein | binding, competitor, fluorescence displacement |  | 20 µM, pH 7.4, added: 1-NPN 20 µM | reference: 1-NPN alone | relative fluorescence | 43.1% |
| CC[C@H](C)[C@@H]1NC(=O)[C@H](CO)NC(=O)[C@@H]2CCCN2C(=O)[C@@H](NC(=O)CN)CSSC[C@@H]2NC(=O)CNC(=O)[C@H](C)NC(=O)[C@H](CC(C)C)NC(=O)[C@@H]3CSSC[C@@H](C(=O)NCC(=O)O)NC(=O)[C@H](Cc4ccccc4)NC(=O)CNC(=O)[C@H](CC(N)=O)NC(=O)[C@@H]4CCCN4C(=O)CNC(=O)[C@H](CSSC[C@H](NC(=O)[C@H](CCCNC(=N)N)NC(=O)[C@@H]4CCCN4C(=O)[C@H](CCCNC(=N)N)NC(=O)[C@H](CCCCN)NC(=O)[C@H](C(C)C)NC(=O)[C@H](CCCNC(=N)N)NC(=O)[C@H](CC(N)=O)NC1=O)C(=O)N[C@@H](CCCCN)C(=O)N[C@@H](CCC(N)=O)C(=O)N[C@@H](CC(=O)O)C(=O)N[C@@H](CO)C(=O)N[C@@H](CC(=O)O)C(=O)N3)NC(=O)[C@H](C(C)C)NC2=O | Low-density lipoprotein receptor-related protein 6, E1 domain (LRP6, Homo sapiens, UniProt O75581) | binding, SPR |  | pH 7.5 |  | kon | 1.47e+06 ± 120000 M⁻¹ s⁻¹ |
| N[C@H](CNC(=O)c1cc(Br)c(-c2ccccc2F)s1)C(=O)O | Glutamate receptor ionotropic, NMDA 1, with GluN2C (Grin1, Rattus norvegicus, UniProt P35439, F754L) | receptor activation | rat | added: glutamate 300 µM |  | log EC50 | -1.72 µM |
| [O-][S+]1CCCCS1 (stereo not drawn) | SOD1 (Homo sapiens, UniProt P00441, G94A) | LC-MS | brain homogenate | 0.5 µM, 1 h, 37 °C |  | SOD1 dimer fraction | 0.34% |
| CN(C)C(=O)C(CCN1CCC(O)(c2ccc(Cl)cc2)CC1)(c1ccccc1)c1ccccc1 | Calcium-activated potassium channel subunit alpha-1, with LRRC26 γ1 subunit (KCNMA1, Homo sapiens, UniProt Q12791) | BK current, inhibitor, inside-out patch clamp | excised membrane patch | 10 µM, γ1 subunit coexpressed, added: nominally 0 Ca2+ cytosolic | reference: without loperamide | normalized Gmax | 0.234 |
| Cc1occc(=O)c1[O-].[Cl-].[W+4].c1cc[cH-]c1.c1cc[cH-]c1 | ALB | fluorescence quenching |  | 317 K |  | Stern-Volmer quenching constant | 16600 L/mol |
| CC1(C)[C@H]2CC=C(CO)[C@@H]1C2 | uncharacterized protein | binding, 1-NPN competitive displacement |  | protein 2.0 µM, added: 1-NPN 20 µM | reference: 1-NPN without compound, lower = stronger binding | relative fluorescence | 71.2% |
| CNC(=O)[C@@]12C[C@@H]1[C@@H](n1cnc3c(NCCc4ccc(O)c(OC)c4)nc(C#Cc4ccc(Cl)s4)nc31)[C@H](O)[C@@H]2O | ADORA3 (Homo sapiens, UniProt P0DMS8) | β-arrestin 2 recruitment, agonist, NanoBiT | HEK293T |  | reference: reference agonist | Emax | 69.7% |
| O=c1nc(SCc2cc(F)cc(C(F)(F)F)c2)nc(SCc2csc3ccc(Cl)cc23)[nH]1 | TOP2A (Homo sapiens, UniProt P11388) | DNA cleavage |  | 7.8 µM, replicate 1 |  | linear DNA | 0% |
| CC[C@@H]1[C@H](F)C(=O)N[C@@H]1COc1nccc2cc(C(N)=O)c(OC)cc12 | SNRK (Homo sapiens, UniProt Q9NRH2) | ATP-site probe binding, ActivX profiling | THP-1 cell lysate | 0.2 mM, Lys2 site |  | inhibition | 21.5% |

Excerpt of the above:
| SMILES | target | assay | system | conditions | how to read | endpoint | value |
| --- | --- | --- | --- | --- | --- | --- | --- |
| CC[C@H](C)[C@@H]1NC(=O)[C@H](CO)NC(=O)[C@@H]2CCCN2C(=O)[C@@H](NC(=O)CN)CSSC[C@@H]2NC(=O)CNC(=O)[C@H](C)NC(=O)[C@H](CC(C)C)NC(=O)[C@@H]3CSSC[C@@H](C(=O)NCC(=O)O)NC(=O)[C@H](Cc4ccccc4)NC(=O)CNC(=O)[C@H](CC(N)=O)NC(=O)[C@@H]4CCCN4C(=O)CNC(=O)[C@H](CSSC[C@H](NC(=O)[C@H](CCCNC(=N)N)NC(=O)[C@@H]4CCCN4C(=O)[C@H](CCCNC(=N)N)NC(=O)[C@H](CCCCN)NC(=O)[C@H](C(C)C)NC(=O)[C@H](CCCNC(=N)N)NC(=O)[C@H](CC(N)=O)NC1=O)C(=O)N[C@@H](CCCCN)C(=O)N[C@@H](CCC(N)=O)C(=O)N[C@@H](CC(=O)O)C(=O)N[C@@H](CO)C(=O)N[C@@H](CC(=O)O)C(=O)N3)NC(=O)[C@H](C(C)C)NC2=O | Low-density lipoprotein receptor-related protein 6, E1 domain (LRP6, Homo sapiens, UniProt O75581) | binding, SPR |  | pH 7.5 |  | kon | 1.47e+06 ± 120000 M⁻¹ s⁻¹ |
